{"data": "Experimental data pooled from the literature", "note": "Lines come from different studies, so protocols differ. ± marks the error that the study gave."}
{"SMILES": "COc1cc(CNC(=O)C[C@H](C)CCC=C(C)C)ccc1OCc1cn(-c2ccccc2)nn1", "target or system": "SW-620", "assay": "SRB", "setting": "10 µM, 48 h", "endpoint": "growth percent", "result": "98.7%"}
{"SMILES": "C=C(c1ccc(C(=O)O)c(F)c1)c1cc2c(cc1C)C(C)(C)C=CC2(C)C", "assay": "RNA sequencing, measured: Aurkb mRNA", "test system": "rat, brain", "setting": "dose not given, 24 h, single dose", "how to read": "relative to: vehicle", "endpoint": "log2 fold change", "result": 0.4}
{"SMILES": "CC(=O)N[C@@H](CC(N)=O)C(=O)NCC(=O)N[C@@H](CCCNC(=N)N)C(=O)N[C@@H](C)C(N)=O", "assay": "1H NMR", "test system": "sodium phosphate buffer 50 mM", "setting": "pH 7.4, 55 °C", "endpoint": "rate constant succinimide to α-Asp", "result": "2.2 h⁻¹"}
{"SMILES": "CCc1nnc(NS(=O)(=O)c2ccc(NC(=S)NC(=O)/C=C/c3ccc(F)cc3)cc2)s1", "test system": "NXS2 allograft, A/J mice, tumour", "setting": "intraperitoneal, 20 mg/kg daily, 3 weeks", "how to read": "relative to: vehicle", "endpoint": "cleaved caspase-3 level", "result": "increased"}
{"SMILES": "CC(=O)[O-].O.O.O.O.[Ni+2].[O-]c1ccc(Br)cc1C=NCCN1CCOCC1", "assay": "hydroxyl radical scavenging", "setting": "240 µM", "endpoint": "inhibition", "result": "55.4%"}
{"SMILES": "Cc1nc(C)c(C=[N+]([O-])C(C)(C)C)nc1C", "assay": "Western blot, measured: MEF2D", "test system": "MPTP mouse model, substantia nigra cytosol", "setting": "90 mg/kg", "endpoint": "increase in protein level", "result": "63.6%"}
{"SMILES": "O=C(Nc1ccc(C(F)(F)F)cc1Cl)c1cc(Cl)ccc1O", "test system": "mice relapsed VCaP xenograft", "setting": "oral, 75 mg/kg", "endpoint": "tumour growth", "result": "decreased"}
{"SMILES": "COc1ccc(C2CC(c3ccc(C)cc3)=Nc3ccccc3S2)cc1 (centres unmarked)", "test system": "Wistar rat, STZ-induced diabetes", "setting": "oral, 10 mg/kg once daily, day 1", "endpoint": "blood glucose", "result": "373 ± 4.11 mg/dL"}
{"SMILES": "COc1cc(CNC(=O)C[C@H](C)CCC=C(C)C)ccc1OCc1cn(-c2ccc(C#N)cc2)nn1", "target or system": "SF-295 CNS cancer cells", "assay": "SRB", "setting": "10 µM, 48 h", "endpoint": "growth percent", "result": "54%"}
{"SMILES": "CC(=O)Nc1ccc(OC(=O)CCC(=O)[O][Pt-2]23([O]C(=O)CCC(=O)Oc4ccc(NC(C)=O)cc4)([NH2+][C@@H]4CCCC[C@H]4[NH2+]2)[O]C(=O)C(=O)[O]3)cc1", "test system": "BALB/c mouse, 4T1 tumour, tumour tissue", "setting": "dose not given", "how to read": "relative to: PBS", "endpoint": "TNF-alpha level", "result": "3 fold"}
{"SMILES": "CC1CCCN(CCCNC(=O)C2=Cc3sc4c(c3CS2)CCCC4)C1 (centres unmarked)", "assay": "immunohistochemistry", "test system": "HCT-116-GFP xenograft, NCr nude mice, tumour", "setting": "intratumoral, 3 mg/kg", "endpoint": "cleaved caspase-3 level", "result": "increased"}
{"SMILES": "CC(C)C[C@H](N)C(=O)N1CCC[C@H]1C(=O)NCC(=O)NCC(=O)O", "assay": "diketopiperazine formation, Arrhenius plot, ESI-MS", "test system": "1-propanol", "setting": "70, 80, 90 °C, 0.5% acetic acid", "endpoint": "ΔG‡ at 298.15 K", "result": "23.2 ± 1.43 kcal/mol"}
{"SMILES": "Cc1cccc(Cn2ncc3c4cc(F)c(CN(C)C)cc4n(C)c3c2=O)n1", "test system": "rd10 mouse, retina", "setting": "intraperitoneal, 50 mg/kg, 7 days (P21)", "endpoint": "retinal PK activity", "result": "increased"}
{"SMILES": "CCOC(=O)c1cc2c(N)c(C(=O)OC)sc2nc1C", "test system": "Sprague-Dawley rats", "setting": "subcutaneous, dose not given", "how to read": "relative to: vehicle", "endpoint": "non-urea solute excretion", "result": "no effect"}
{"SMILES": "CC(C)c1cnc(-c2cc(Cl)ccc2F)cc1Nc1ccncc1C(=O)NC(CO)CO", "assay": "SMAD2/3 phosphorylation, flow cytometry", "test system": "human patients, peripheral monocytes", "setting": "150 to 500 mg, 1 to 4 h, single and multiple doses, monotherapy", "endpoint": "inhibition", "result": "30 to 94%"}
{"SMILES": "C[C@H](NC(=O)COC(=O)[C@H](C)NC(=O)CO)C(=O)O", "test system": "water", "setting": "pH 3, 25 °C", "endpoint": "depolymerization rate constant", "result": "0.001 h⁻¹"}
{"SMILES": "COc1ccc2c(c1)c(CC(=O)OCOC(C)=O)c(C)n2C(=O)c1ccc(Cl)cc1", "assay": "hot plate test", "test system": "BALB/c mice", "setting": "50 mg/kg, 0 min", "endpoint": "latency of nociceptive response", "result": "9.02 ± 0.44 s"}
{"SMILES": "COc1ccc2c(c1OC)C(C(Cl)(Cl)Cl)N1CCc3cc4c(cc3C1=C2)OCO4 (centres unmarked)", "test system": "rat, STZ-induced diabetic, serum", "setting": "oral, 12 mg/kg, day 28", "endpoint": "ALT activity", "result": "79 ± 2.5 U/L"}
{"SMILES": "CC1OC(Oc2c(-c3ccc(O)cc3)oc3cc(O)cc(O)c3c2=O)C(OC(=O)C=Cc2ccc(O)cc2)C(O)C1OC(=O)C=Cc1ccc(O)cc1 (centres unmarked)", "assay": "flow cytometry", "test system": "mouse C57BL/6, orthotopic Hepa1-6, tumour", "setting": "dose not given", "endpoint": "decrease of macrophages", "result": "43%"}
{"SMILES": "CC(CCC(=O)NCc1ccc(C(=O)NO)cc1)C1CCC2C3C(O)CC4CC(O)CCC4(C)C3CCC12C (centres unmarked)", "assay": "immunoblot", "test system": "PCK rats, liver", "setting": "dose not given", "how to read": "relative to: untreated", "endpoint": "acetylated α-tubulin level", "result": "increased"}
{"SMILES": "NC(=O)CC[C@H](N)C(=O)N1CCC[C@H]1C(=O)NCC(=O)NCC(=O)O", "assay": "diketopiperazine formation, Arrhenius plot, ESI-MS", "test system": "1-propanol", "setting": "70, 80, 90 °C, 0.5% acetic acid", "endpoint": "ΔG‡ at 298.15 K", "result": "22 ± 2.63 kcal/mol"}
{"SMILES": "CCCCCCCCCCCCCCCC(=O)N[C@@H](CCCCN)C(=O)N[C@@H](CCCCN)C(=O)N[C@@H](CO)C(=O)N[C@@H](CCCNC(=N)N)C(=O)N[C@@H](C)C(=O)N[C@@H](CC(C)C)C(=O)N[C@@H](Cc1ccccc1)C(N)=O", "test system": "guinea pig", "setting": "intravenous infusion, above 0.05 mg/kg, 10 min infusion, maximum 60 min", "endpoint": "mean occlusion time", "result": "40 min"}
{"SMILES": "C[C@@H](NC(=O)[C@@H](Cc1ccccc1)NC(=O)[C@@H](Cc1c[nH]cn1)NC(=O)[C@@H](Cc1ccc(O)cc1)NC(=O)[C@@H](CCC(=O)O)NC(=O)[C@@H](CO)NC(=O)[C@H](N)CCC(N)=O)C(=O)O", "test system": "rabbit, AT1R autoantibody-immunised hypertension", "setting": "iv, 1 mg/kg, 6 weeks immunisation", "endpoint": "heart rate", "result": "140 ± 8 bpm"}
{"SMILES": "N[C@@H](CCC(=O)O)C(=O)N1CCC[C@H]1C(=O)NCC(=O)NCC(=O)O", "assay": "diketopiperazine formation, Arrhenius plot, ESI-MS", "test system": "1-propanol", "setting": "70, 80, 90 °C, 0.5% acetic acid", "endpoint": "ΔG‡ at 298.15 K", "result": "22.5 ± 3.59 kcal/mol"}
{"SMILES": "C=C(c1cc(F)c(C(=O)O)c(F)c1)c1cc2c(cc1C)C(C)(C)CCC2(C)C", "assay": "RNA sequencing, measured: Epha3 mRNA", "test system": "rat, brain", "setting": "dose not given, 24 h, single dose", "how to read": "relative to: vehicle", "endpoint": "log2 fold change", "result": -0.89}
{"SMILES": "CC(C)(O)c1ccc(N2Cc3c(ccnc3-c3ccc(F)cc3OCC(F)(F)F)C2=O)cc1", "test system": "Gaucher disease mouse model, brain", "setting": "30 mg/kg, single dose", "how to read": "relative to: vehicle", "endpoint": "glucosylceramide level", "result": "41 ± 2%"}
{"note": "A few entries again:"}
{"SMILES": "C=C(c1ccc(C(=O)O)c(F)c1)c1cc2c(cc1C)C(C)(C)C=CC2(C)C", "assay": "RNA sequencing, measured: Aurkb mRNA", "test system": "rat, brain", "setting": "dose not given, 24 h, single dose", "how to read": "relative to: vehicle", "endpoint": "log2 fold change", "result": 0.4}
{"SMILES": "CC(C)c1cnc(-c2cc(Cl)ccc2F)cc1Nc1ccncc1C(=O)NC(CO)CO", "assay": "SMAD2/3 phosphorylation, flow cytometry", "test system": "human patients, peripheral monocytes", "setting": "150 to 500 mg, 1 to 4 h, single and multiple doses, monotherapy", "endpoint": "inhibition", "result": "30 to 94%"}
